Experimental data from different studies.
Each line is one published result; not all experiments were run side by side.
PIK3CA with p85 alpha: Phosphatidylinositol 4,5-bisphosphate 3-kinase catalytic subunit alpha isoform, with p85 alpha (PIK3CA, Homo sapiens, UniProt P42336)
PIK3CA E542K with p85 alpha: Phosphatidylinositol 4,5-bisphosphate 3-kinase catalytic subunit alpha isoform, with p85 alpha (PIK3CA, Homo sapiens, UniProt P42336, E542K)
UCHL1: Ubiquitin carboxyl-terminal hydrolase isozyme L1 (UCHL1, Homo sapiens, UniProt P09936)
Sequence of UniProt P09936 (whole entry, looked up): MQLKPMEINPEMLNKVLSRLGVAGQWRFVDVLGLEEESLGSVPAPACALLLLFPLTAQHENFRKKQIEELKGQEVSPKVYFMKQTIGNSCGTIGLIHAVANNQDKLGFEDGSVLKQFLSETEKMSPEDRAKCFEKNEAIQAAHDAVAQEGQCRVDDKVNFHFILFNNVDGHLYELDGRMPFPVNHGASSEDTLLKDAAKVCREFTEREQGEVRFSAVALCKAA

For `O=C(NC1CCC1)c1ccc2nc(-c3cccc(NS(=O)(=O)NCCN4CCCCC4)c3)cn2c1`, the remaining activity was 100% (PIK3CA (Homo sapiens, UniProt P42336, E545A); enzyme activity; 10 µM).
`CS(=O)(=O)Nc1cccc(-c2csc(NC(=O)CSc3nc4nccnc4c(=O)n3CCc3ccccc3)n2)c1` has an inhibition of 9% (PIK3CA with p85 alpha; kinase activity, inhibitor; 10 µM, together with: PIK3R1 complex).
`Cc1nc(NC(=O)N2CCCC2)sc1-c1csc(C(C)(C)C)n1` gave an inhibition of 17% (PIK3CA (Homo sapiens, UniProt P42336, I771A); enzyme activity; 3 µM).
For `Cc1cc(NC(=O)c2cccc3cc(-c4cccc5[nH]nc(N)c45)ccc23)ccc1F`, the remaining activity was 98% (PIK3CA E542K with p85 alpha; inhibitor; 0.1 µM).
For `C=CC(=O)Nc1cc(Nc2nccc(Nc3cc(Cl)c(F)cc3C(C)(C)O)n2)c(OC)cc1N1CC[C@@H](N(C)C)C1`, the inhibition was 0% (PIK3CA with p85 alpha; kinase activity, inhibitor; 1 µM).
The inhibition of `O=C(CSc1nc2nccnc2c(=O)n1CCc1ccccc1)Nc1nccs1` is reported as 27% (PIK3CA with p85 alpha; kinase activity, inhibitor; 10 µM, together with: PIK3R1 complex).
With `COc1cc(-c2cncc3c2CN(C)Cc2cc(N4CCNCC4)ccc2-3)cc(OC)c1OC` the remaining activity was 100% (PIK3CA E542K with p85 alpha; kinase activity; 1 µM, p110a(E542K)/p85a)(h human, together with: ATP 10 µM; baseline: DMSO).
`CN(C)CCCN(C(=O)c1nc2ccccc2s1)c1nc2ccc(F)cc2s1` gave an inhibition of 0.5% (Trypanosoma cruzi; reporter translation, Renilla luciferase mRNA translation; cell-free extract; 40 µM; baseline: DMSO).
`CN1CC(Oc2cnc(C#N)cc2-c2ccn3nc(NC(=O)C4CC4)cc3c2)C1` gave an inhibition of 0% (PIK3CA with p85 alpha; inhibitor, KinaseProfiler panel; 1 µM).
The labelling of `N#CC(=Cc1ccccc1Cl)C(=O)Nc1cccc2ncccc12` is reported as 10.5% (UCHL1; covalent, intact protein LC-MS; 12.5 µM).
`C=CC(=O)N1CCC(COCC(=O)N2CCN(c3nc(-c4cnc(N)nc4C(F)F)nc(N4CCOC[C@@H]4C)n3)CC2)CC1` has a remaining binding of 0% (PIK3CA (Homo sapiens, UniProt P42336, E545K); KINOMEscan; 1 µM).
`Cc1ccccc1NC(=O)C(C#N)=Cc1c(Cl)nc2ccccn12` has a labelling of 11.7% (UCHL1; covalent, intact protein LC-MS; 12.5 µM).
With `CN(C)CCCCCN(C)Cc1cc2ccccc2o1.Cl` the inhibition was -6.1% (Trypanosoma cruzi; reporter translation, Renilla luciferase mRNA translation; cell-free extract; 40 µM; baseline: DMSO).
The inhibition of `[2H]c1cc(C)c(NC(=O)c2cnc(Nc3cc(N4CCC(O)CC4)nc(C)n3)s2)c(Cl)c1` is reported as less than 50% (Phosphatidylinositol 4,5-bisphosphate 3-kinase catalytic subunit alpha isoform, with PIK3R1 (PIK3CA, Homo sapiens, UniProt P42336); 0.001 µM).
`Cc1ccc(NC(=O)c2ccc(C)c(C(F)(F)F)c2)cc1C#Cc1nn(C2CCC(O)CC2)c2ncnc(N)c12` (stereo not shown) has a remaining activity of 79% (PIK3CA with p85 alpha; enzyme activity, inhibitor; 10 µM, p110a/p85a)(h human, together with: ATP 10 µM).
`CN(C)C1CCN(CC#Cc2nn(C3CCCC3)c3nc(NCc4ccccc4)ncc23)C1` (stereo not shown) has an inhibition of 4% (PIK3CA with p85 alpha; enzyme activity, inhibitor, Z'-LYTE; 1000 nM).

For quick reference, copied from above:
The inhibition of `[2H]c1cc(C)c(NC(=O)c2cnc(Nc3cc(N4CCC(O)CC4)nc(C)n3)s2)c(Cl)c1` is reported as less than 50% (Phosphatidylinositol 4,5-bisphosphate 3-kinase catalytic subunit alpha isoform, with PIK3R1 (PIK3CA, Homo sapiens, UniProt P42336); 0.001 µM).
